Experimental data pooled from the literature.
Protocols differ between the studies behind these lines. Numbers after ± are the reported error. The star is where a group is joined.
Kelch domain-containing protein 2: Kelch domain-containing protein 2 (UniProt Q9Y2U9)
Sequence of UniProt Q9Y2U9 (whole entry, looked up): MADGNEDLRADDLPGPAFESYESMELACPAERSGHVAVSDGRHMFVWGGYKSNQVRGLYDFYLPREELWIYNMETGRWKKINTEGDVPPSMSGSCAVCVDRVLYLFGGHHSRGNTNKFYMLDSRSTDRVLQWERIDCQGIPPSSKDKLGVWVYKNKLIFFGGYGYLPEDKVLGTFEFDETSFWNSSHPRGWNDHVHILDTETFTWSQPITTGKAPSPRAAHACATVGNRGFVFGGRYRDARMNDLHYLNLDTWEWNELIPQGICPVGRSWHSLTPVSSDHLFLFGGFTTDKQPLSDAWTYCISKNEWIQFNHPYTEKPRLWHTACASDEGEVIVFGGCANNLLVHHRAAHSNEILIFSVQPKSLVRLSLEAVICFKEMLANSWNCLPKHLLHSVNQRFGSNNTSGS
ESR1: Estrogen receptor (ESR1, Homo sapiens, UniProt P03372)
Sequence of UniProt P03372 (whole entry, looked up): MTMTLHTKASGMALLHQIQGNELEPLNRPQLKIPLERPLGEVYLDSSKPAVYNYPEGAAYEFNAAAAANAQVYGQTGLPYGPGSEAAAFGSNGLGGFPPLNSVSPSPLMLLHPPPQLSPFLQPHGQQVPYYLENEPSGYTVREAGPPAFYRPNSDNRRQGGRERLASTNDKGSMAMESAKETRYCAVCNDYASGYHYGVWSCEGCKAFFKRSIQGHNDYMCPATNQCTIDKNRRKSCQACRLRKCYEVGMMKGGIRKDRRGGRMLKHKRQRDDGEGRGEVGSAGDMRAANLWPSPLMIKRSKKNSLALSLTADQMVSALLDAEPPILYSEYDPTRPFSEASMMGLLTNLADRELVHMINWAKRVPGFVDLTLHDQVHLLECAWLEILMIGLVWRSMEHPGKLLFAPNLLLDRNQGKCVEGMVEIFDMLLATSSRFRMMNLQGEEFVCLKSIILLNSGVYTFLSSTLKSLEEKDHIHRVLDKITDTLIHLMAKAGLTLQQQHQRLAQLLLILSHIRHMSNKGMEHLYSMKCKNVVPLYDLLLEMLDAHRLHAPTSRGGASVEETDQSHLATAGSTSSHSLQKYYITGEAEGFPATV
CNR2: Cannabinoid receptor 2 (CNR2, Homo sapiens, UniProt P34972)
Sequence of UniProt P34972 (whole entry, looked up): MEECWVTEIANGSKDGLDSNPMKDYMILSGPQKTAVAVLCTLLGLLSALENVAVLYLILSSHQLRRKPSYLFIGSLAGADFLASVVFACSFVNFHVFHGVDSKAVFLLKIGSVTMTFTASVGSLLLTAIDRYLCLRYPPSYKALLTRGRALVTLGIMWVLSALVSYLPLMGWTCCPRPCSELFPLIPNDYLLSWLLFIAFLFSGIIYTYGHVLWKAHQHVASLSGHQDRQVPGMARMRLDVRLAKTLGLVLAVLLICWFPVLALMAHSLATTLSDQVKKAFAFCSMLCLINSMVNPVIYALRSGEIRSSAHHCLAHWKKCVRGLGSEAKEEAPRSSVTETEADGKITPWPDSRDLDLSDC
lasR: Transcriptional activator protein LasR (lasR, Pseudomonas aeruginosa, UniProt P25084)
ESR2: Estrogen receptor beta (ESR2, Homo sapiens, UniProt Q92731)
Sequence of UniProt Q92731 (whole entry, looked up): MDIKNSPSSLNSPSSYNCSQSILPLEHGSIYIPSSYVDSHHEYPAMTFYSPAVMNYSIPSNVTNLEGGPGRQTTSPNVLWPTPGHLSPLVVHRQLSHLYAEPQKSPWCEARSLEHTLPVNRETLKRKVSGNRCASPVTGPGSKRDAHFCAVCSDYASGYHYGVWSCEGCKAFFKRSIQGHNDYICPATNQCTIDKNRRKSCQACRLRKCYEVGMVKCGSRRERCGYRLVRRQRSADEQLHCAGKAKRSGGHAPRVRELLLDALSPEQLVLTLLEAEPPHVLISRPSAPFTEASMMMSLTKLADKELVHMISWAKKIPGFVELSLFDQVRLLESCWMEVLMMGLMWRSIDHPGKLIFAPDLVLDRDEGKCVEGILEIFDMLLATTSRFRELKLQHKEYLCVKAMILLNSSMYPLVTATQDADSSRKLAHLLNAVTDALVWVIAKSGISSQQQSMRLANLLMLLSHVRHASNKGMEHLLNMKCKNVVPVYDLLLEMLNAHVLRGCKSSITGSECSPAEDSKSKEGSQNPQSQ
OPRM1: Mu-type opioid receptor (OPRM1, Homo sapiens, UniProt P35372)
Sequence of UniProt P35372 (whole entry, looked up): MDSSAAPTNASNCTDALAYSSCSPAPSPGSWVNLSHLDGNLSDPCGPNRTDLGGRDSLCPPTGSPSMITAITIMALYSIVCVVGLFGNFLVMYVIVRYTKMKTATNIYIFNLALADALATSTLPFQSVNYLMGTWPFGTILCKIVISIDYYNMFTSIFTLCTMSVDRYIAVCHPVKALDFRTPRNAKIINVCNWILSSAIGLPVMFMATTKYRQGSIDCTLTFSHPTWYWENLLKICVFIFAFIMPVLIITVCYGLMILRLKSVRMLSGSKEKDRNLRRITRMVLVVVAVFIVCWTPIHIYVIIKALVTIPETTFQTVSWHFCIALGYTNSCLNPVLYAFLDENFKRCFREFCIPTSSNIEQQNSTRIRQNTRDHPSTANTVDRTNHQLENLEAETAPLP
Sequence of UniProt P07164 (whole entry, unmodified, looked up): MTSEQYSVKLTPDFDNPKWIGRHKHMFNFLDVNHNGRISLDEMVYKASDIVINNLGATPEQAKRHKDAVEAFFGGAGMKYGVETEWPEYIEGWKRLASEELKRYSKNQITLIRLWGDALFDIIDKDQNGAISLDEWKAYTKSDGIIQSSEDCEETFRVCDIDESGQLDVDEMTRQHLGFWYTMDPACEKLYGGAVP
Sequence of UniProt P03962 (whole entry, unmodified, looked up): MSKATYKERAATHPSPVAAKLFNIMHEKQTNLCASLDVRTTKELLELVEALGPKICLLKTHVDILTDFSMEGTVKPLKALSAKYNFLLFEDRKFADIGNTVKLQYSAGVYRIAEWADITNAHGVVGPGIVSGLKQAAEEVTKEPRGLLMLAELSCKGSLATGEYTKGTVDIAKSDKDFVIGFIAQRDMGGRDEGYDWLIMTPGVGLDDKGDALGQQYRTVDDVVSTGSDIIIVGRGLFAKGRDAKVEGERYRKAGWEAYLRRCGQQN
Sequence of UniProt O60656 (whole entry, looked up): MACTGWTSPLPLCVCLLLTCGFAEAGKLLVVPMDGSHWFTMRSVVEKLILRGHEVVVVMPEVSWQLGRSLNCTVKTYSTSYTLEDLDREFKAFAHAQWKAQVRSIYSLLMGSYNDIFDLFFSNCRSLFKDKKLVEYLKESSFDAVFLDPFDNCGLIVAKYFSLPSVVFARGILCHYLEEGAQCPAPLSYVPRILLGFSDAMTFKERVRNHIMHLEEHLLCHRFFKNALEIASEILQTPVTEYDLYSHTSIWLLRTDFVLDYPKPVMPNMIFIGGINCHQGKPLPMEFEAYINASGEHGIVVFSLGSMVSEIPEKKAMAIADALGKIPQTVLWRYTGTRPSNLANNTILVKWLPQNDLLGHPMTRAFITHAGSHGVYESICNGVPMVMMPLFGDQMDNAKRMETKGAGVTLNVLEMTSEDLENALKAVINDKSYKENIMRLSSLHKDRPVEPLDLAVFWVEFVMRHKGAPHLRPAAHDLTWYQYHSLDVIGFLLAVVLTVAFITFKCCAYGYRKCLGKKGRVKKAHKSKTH
Sequence of UniProt P69905 (whole entry, looked up): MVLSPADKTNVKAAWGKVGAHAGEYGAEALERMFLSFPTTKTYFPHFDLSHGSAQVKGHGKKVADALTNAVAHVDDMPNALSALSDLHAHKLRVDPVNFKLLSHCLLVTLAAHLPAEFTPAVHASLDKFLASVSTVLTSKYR
Sequence of UniProt P55210 (whole entry, looked up): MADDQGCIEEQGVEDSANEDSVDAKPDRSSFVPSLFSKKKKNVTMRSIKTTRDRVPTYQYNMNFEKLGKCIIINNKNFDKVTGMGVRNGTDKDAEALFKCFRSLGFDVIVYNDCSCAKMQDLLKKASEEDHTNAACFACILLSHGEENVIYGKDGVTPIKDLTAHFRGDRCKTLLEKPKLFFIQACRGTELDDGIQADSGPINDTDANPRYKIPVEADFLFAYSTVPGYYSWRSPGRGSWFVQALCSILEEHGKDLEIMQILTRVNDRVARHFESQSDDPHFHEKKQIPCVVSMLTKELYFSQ
Sequence of UniProt P0A6K3 (whole entry, looked up): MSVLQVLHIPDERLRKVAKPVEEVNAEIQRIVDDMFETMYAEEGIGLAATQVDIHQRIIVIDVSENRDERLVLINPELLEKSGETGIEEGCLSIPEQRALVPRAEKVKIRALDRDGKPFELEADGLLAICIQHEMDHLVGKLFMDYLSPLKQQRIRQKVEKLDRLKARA
Sequence of UniProt P14902 (whole entry, looked up): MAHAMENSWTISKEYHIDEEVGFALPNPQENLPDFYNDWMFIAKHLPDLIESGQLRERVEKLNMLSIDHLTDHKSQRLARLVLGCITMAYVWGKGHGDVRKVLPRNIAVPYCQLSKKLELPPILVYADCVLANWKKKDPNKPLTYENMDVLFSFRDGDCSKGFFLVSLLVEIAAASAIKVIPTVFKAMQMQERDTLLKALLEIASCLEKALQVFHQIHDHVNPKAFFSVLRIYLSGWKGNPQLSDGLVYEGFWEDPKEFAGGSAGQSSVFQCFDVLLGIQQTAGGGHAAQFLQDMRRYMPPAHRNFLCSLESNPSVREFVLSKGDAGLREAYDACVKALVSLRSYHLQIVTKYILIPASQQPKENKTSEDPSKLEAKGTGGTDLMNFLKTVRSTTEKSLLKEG
Sequence of UniProt P00433 (whole entry, looked up): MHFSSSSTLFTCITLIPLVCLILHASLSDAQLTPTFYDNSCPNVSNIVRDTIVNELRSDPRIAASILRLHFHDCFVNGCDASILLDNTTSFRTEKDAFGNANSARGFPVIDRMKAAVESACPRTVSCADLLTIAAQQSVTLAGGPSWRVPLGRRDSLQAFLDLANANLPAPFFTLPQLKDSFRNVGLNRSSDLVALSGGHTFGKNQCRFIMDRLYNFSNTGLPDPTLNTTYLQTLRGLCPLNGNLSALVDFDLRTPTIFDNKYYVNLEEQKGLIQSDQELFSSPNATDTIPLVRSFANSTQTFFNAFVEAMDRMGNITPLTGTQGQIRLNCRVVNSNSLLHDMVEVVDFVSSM
Sequence of UniProt P0AFU8 (whole entry, looked up): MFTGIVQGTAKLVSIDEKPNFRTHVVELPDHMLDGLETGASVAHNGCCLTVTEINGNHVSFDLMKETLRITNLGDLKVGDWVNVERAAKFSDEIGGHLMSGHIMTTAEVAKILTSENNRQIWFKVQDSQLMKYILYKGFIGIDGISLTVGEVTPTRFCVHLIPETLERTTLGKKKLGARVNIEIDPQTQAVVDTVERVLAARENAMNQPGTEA

| Substance | target or system | test | system | conditions | scale | endpoint | value |
| --- | --- | --- | --- | --- | --- | --- | --- |
| Oc1ccc(I)cc1 | PRXC1A (Armoracia rusticana, UniProt P00433) | luminol chemiluminescence, enhancer | – | 200 µM, pH 9 | relative to: no compound | enhancement factor | ~40 |
| TNDAVIKVIGVGGGG | Kelch domain-containing protein 2 | native mass spectrometry | peptide, 200 mM ammonium acetate | 20 µM Kelch domain-containing protein 2, pH 7 | relative to: total Kelch domain-containing protein 2 signal | fraction of protein bound | 0.6% |
| Cc1cc(-c2c[se]cc2-c2ccc(O)c(C)c2)ccc1O | ESR1 | antagonist | HEK293T | highest tested concentration, together with: estradiol 10 nM | relative to: estradiol alone | efficacy | 46 ± 9% |
| RYRHPTRMYY | Serine/threonine-protein kinase pim-1 (PIM1, Homo sapiens, UniProt P11309) | substrate, coupled enzyme | peptide | pH 7.4, room temperature, together with: 1 mM ATP, 20 mM MgCl2 | – | kcat/Km | 310000 M⁻¹ s⁻¹ |
| COc1ccc2c3c1O[C@H]1C[C@@H](O)C=C[C@@]31CCN(C)C2 | Liver carboxylesterase 1 (CES1, Homo sapiens, UniProt P23141) | irreversible inhibitor | – | 5× IC50 or 200 µM, 1 h, preincubation then inhibitor removal, together with: o-nitrophenyl acetate substrate | – | remaining activity | 0% |
| Oc1ccc(Cl)cc1-c1cc(Cl)c(Cl)c(Cl)c1Cl | Aequorin-1 (Aequorea victoria, UniProt P07164, C152S/C159S/C187S) | aequorin bioluminescence, inhibitor | – | 2 h, together with: coelenterazine | – | detection limit | 0.033 µM |
| CC1(C)Oc2cc([C@]34CC5CC(C[C@@](CN=[N+]=[N-])(C5)C3)C4)cc(O)c2[C@@H]2C[C@H](O)CC[C@H]21 | CNR2 | radioligand binding Bmax reduction | HEK293 membranes | 10-fold Ki, together with: [3H]CP-55,940 | relative to: untreated | covalent labeling | 60% |
| TNFFELTTKLHR | HIV-1 neutralising antibody 4E10 | phage binding, M13 phage ELISA | peptide | concentration not given | lower = stronger binding | binding titer | 1.4e+07 M13/mL |
| Cc1cccc(Nc2ccc3c(c2)C(c2ccccc2F)=NC(C)C(=O)N3)c1 (stereo not drawn) | Alpha-2A adrenergic receptor (ADRA2A, Homo sapiens, UniProt P08913) | ligand displacement, radioligand | – | 10 µM | – | inhibition | 65% |
| Nc1cccc2c1CN(C1CCC(=O)NC1=O)C2=O (stereo not drawn) | Indoleamine 2,3-dioxygenase 1 (IDO1, Homo sapiens, UniProt P14902) | inhibitor, western blot | HeLa | 1 µM, 2 h pretreatment, then 24 h, together with: IFN-γ 5 ng/mL plus degrader 5 µM | – | IDO1 degradation | inhibited |
| O=C(Cc1ccccc1I)NC1CCOC1=O (stereo not drawn) | lasR | reporter gene, agonist | Escherichia coli JLD271/pJN105L/pSC11 | 100 µM | relative to: OdDHL 100 µM | activation | -4% |
| TDRQGNALGWATAGG | Kelch domain-containing protein 2 | native mass spectrometry | peptide, 200 mM ammonium acetate | 20 µM Kelch domain-containing protein 2, pH 7 | relative to: total Kelch domain-containing protein 2 signal | fraction of protein bound | 0.2% |
| Cc1cc(-c2ccc(-c3cc(C)c(O)c(C)c3)[se]2)cc(C)c1O | ESR1 | antagonist | HEK293T | highest tested concentration, together with: estradiol 10 nM | relative to: estradiol alone | efficacy | 148 ± 2% |
| O=C(O)c1ccccc1-c1cccnc1 | pqsE (Pseudomonas aeruginosa, UniProt P20581, E182A) | thermal stability, DSF | – | – | – | ΔTm | 10 °C |
| CN[C@@](C)(C[18F])C(=O)O | MDA-MB-468 tumour model | – | host not given, lung | 2 h, tumour-bearing | – | tracer uptake | 1.1 %ID/g |
| cyclo(GLWFGPRL) (cyclic) | diapause hormone receptor (Helicoverpa zea, UniProt S5LVZ5) | receptor activation, agonist, aequorin luminescence | CHO-K1 expressing receptor | 1 µM | relative to: model ligand response | agonist activity | 3.9% |
| O=c1[nH]c(/C=C/c2cccc(O)c2O)c([N+](=O)[O-])c(=O)[nH]1 | Riboflavin synthase (ribC, Escherichia coli, UniProt P0AFU8) | enzyme activity, substrate | Escherichia coli, recombinant riboflavin synthase | pH 7.0 | – | Ks | 2.6 ± 0.3 µM |
| O=C1C(O)=C([C@H]2CC[C@H](c3ccc(Cl)cc3)CC2)C(=O)c2ccccc21 | CRT (Plasmodium falciparum, UniProt W7FI62) | scintillation proximity | nanodiscs | 10 µM, together with: [3H]-chloroquine and [3H]-piperaquine | – | inhibition of binding | no inhibition |

| Substance | target or system | test | system | conditions | scale | endpoint | value |
| --- | --- | --- | --- | --- | --- | --- | --- |
| C[C@@H](O)[C@H](NS(=O)(=O)c1cccc2c(N(C)C)cccc12)C(=O)N[C@@H](CCCCN)C(=O)N[C@@H](CCC(N)=O)C(=O)N[C@@H](CCC(=O)O)C(=O)N[C@@H](CCC(=O)O)C(=O)N[C@@H](Cc1ccccc1)C(=O)N[C@@H](Cc1ccc(O)cc1)C(=O)N[C@@H](Cc1ccccc1)C(=O)O | Rho guanine nucleotide exchange factor TIAM1, PDZ domain (TIAM1, Homo sapiens, UniProt Q13009) | fluorescence anisotropy | – | concentration not given, dansylated peptide | relative to: model peptide Kd over peptide Kd | binding affinity fold change | 2 |
| Cc1cc(O)ccc1-c1ccc(-c2ccc(O)cc2C)[se]1 | ESR2 | antagonist | HEK293T | highest tested concentration, 24 h, together with: estradiol 10 nM | relative to: estradiol alone | efficacy | 50 ± 11% |
| Ac-LDEVD-pNA (N-acetyl, C-pNA; pNA = O=[N+]([O-])c1ccc(N*)cc1) | Caspase-7 (CASP7, Homo sapiens, UniProt P55210) | substrate hydrolysis, substrate, colorimetric | – | pH 7.5 | – | kcat | 0.967 ± 0.05 s⁻¹ |
| Cc1cc(O)cc(C)c1-c1ccc(-c2c(C)cc(O)cc2C)[se]1 | ESR2 | antagonist | HEK293T | highest tested concentration, 24 h, together with: estradiol 10 nM | relative to: estradiol alone | efficacy | 66 ± 3% |
| O=Cc1ccc(COc2ccccc2)o1 | Hemoglobin subunit alpha, with sickle beta chain (HBA1, Homo sapiens, UniProt P69905) | oxygen affinity | sickle red cell lysate | 2000 µM | relative to: untreated | P50 change | 45.4 ± 14.6% |
| Nc1nnc(S)s1 | Peptide deformylase (def, Escherichia coli, UniProt P0A6K3) | activator, aminopeptidase-coupled | 50 mM potassium phosphate | 500 µM, more than 2 days preincubation, pH 7.0 | – | initial rate | 17.5 mOD/min |
| O=P(O)(O)OC[C@@H](O)[C@@H](O)CO | Orotidine 5'-phosphate decarboxylase (Saccharomyces cerevisiae S288c, UniProt P03962, D37G) | activated decarboxylation of FO, activator | – | pH 7.0, 25 °C, upper limit, ionic strength 0.15 | – | (kcat/Km)/Kd | 0.0089 ± 0.0003 M⁻² s⁻¹ |
| O=C(Cc1ccc(-c2ccccc2)cc1)N[C@H]1CCSC1=O | lasR | reporter gene, agonist | PAO1 MW1 pUM15 | 10 µM, together with: OdDHL | – | activation | > 20% |
| C[C@H]1CC[C@@H](NC(=O)c2cc3cc(-c4cccs4)cnc3n(Cc3ccc(F)cc3)c2=O)CC1 | CNR2 | [3H]CP-55,940 displacement | – | – | relative to: cis over trans isomer | affinity ratio | 68 fold |
| CC(C)(NC(=O)c1nn(Cc2ccc(F)cc2)c2ccccc12)c1cccc(C(N)=O)c1 | CNR2 | calcium mobilization, agonist | CHO-K1 expressing Gαq16 | – | relative to: CP55,940 maximum | Emax | 41 ± 2% |
| NCCCC(=O)O | Drosophila RDL receptor residue 206 | – | – | log EC50 vs cation-π binding | – | fluorination plot slope | -0.13 |
| COc1cccc(Oc2ccc(C(=O)N[C@H](CN3CCN(c4cccc(O)c4)[C@@H](C)C3)C(C)C)cc2)c1 | OPRM1 | antagonist | CHO | together with: DAMGO | – | Ke | 33 ± 14 nM |
| GGNWST | UDP-glucose:protein N-beta-glucosyltransferase (Actinobacillus pleuropneumoniae serotype 5b, UniProt A3N2T3, D215R/Q469A) | substrate | peptide | 15 min, pH 8.0, 37 °C, D215R mutant, together with: UDP-Glc 100 mM | – | kcat/Km | 4 M⁻¹ s⁻¹ |
| CC(=O)CC(c1ccccc1)c1c(O)c2cccc(O)c2oc1=O (stereo not drawn) | UDP-glucuronosyltransferase 1A9 (UGT1A9, Homo sapiens, UniProt O60656) | substrate | – | pH 7.4, 37 °C | – | Vmax | 9230 pmol/mg/min |
| MKVAVLGAAGG | Kelch domain-containing protein 2 | native mass spectrometry | peptide, 200 mM ammonium acetate | 20 µM Kelch domain-containing protein 2, pH 7 | relative to: total Kelch domain-containing protein 2 signal | fraction of protein bound | 0.9% |
| COc1ccccc1Oc1ccc(C(=O)N[C@H](CN2CCN(c3cccc(O)c3)[C@@H](C)C2)C(C)C)cc1 | OPRM1 | antagonist | CHO | together with: DAMGO | – | Ke | 127 ± 78 nM |
| CC(C)(NC(=O)c1nn(Cc2ccc(F)cc2)c2ccccc12)C1CCCN(CC(N)=O)C1 (stereo not drawn) | CNR2 | calcium mobilization, agonist | CHO-K1 expressing Gαq16 | – | relative to: CP55,940 maximum | Emax | 13 ± 2% |
| Nc1ncnc2c1ncn2[C@@H]1O[C@H](CO[P@](=O)(O)O[P@](=O)(O)O[P@@](=O)(O)S)[C@@H](O)[C@H]1O | matB (Rhodopseudomonas palustris, UniProt Q6ND88, C106A/K488A/Q457C/R286C) | nucleotide binding | – | 0.5 µM protein, pH 7.0, 20 °C, 10 mM MgCl2 | relative to: saturating ligand over no ligand | fluorescence ratio | 1.9 ± 0.1 |

A few entries again:
| Substance | target or system | test | system | conditions | scale | endpoint | value |
| --- | --- | --- | --- | --- | --- | --- | --- |
| Nc1nnc(S)s1 | Peptide deformylase (def, Escherichia coli, UniProt P0A6K3) | activator, aminopeptidase-coupled | 50 mM potassium phosphate | 500 µM, more than 2 days preincubation, pH 7.0 | – | initial rate | 17.5 mOD/min |
| O=P(O)(O)OC[C@@H](O)[C@@H](O)CO | Orotidine 5'-phosphate decarboxylase (Saccharomyces cerevisiae S288c, UniProt P03962, D37G) | activated decarboxylation of FO, activator | – | pH 7.0, 25 °C, upper limit, ionic strength 0.15 | – | (kcat/Km)/Kd | 0.0089 ± 0.0003 M⁻² s⁻¹ |
| O=C(Cc1ccc(-c2ccccc2)cc1)N[C@H]1CCSC1=O | lasR | reporter gene, agonist | PAO1 MW1 pUM15 | 10 µM, together with: OdDHL | – | activation | > 20% |
| C[C@H]1CC[C@@H](NC(=O)c2cc3cc(-c4cccs4)cnc3n(Cc3ccc(F)cc3)c2=O)CC1 | CNR2 | [3H]CP-55,940 displacement | – | – | relative to: cis over trans isomer | affinity ratio | 68 fold |
